{"data": "Measurements of several laboratories", "organism": "Enterococcus faecium", "note": "Each line is one published result; not all experiments were run side by side."}
{"SMILES": "C=C(NC(=O)C(=C)NC(=O)c1csc(C2=NC3c4csc(n4)C4NC(=O)c5csc(n5)C(C(C)(O)C(C)O)NC(=O)C5CSC(=N5)C(=CC)NC(=O)C(C(C)O)NC(=O)c5csc(n5)C3(CC2)NC(=O)C(C)NC(=O)C(=C)NC(=O)CNC(=O)C(C(C)CC)NC2C=Cc3c(C(C)O)cc(nc3C2O)C(=O)OC4C)n1)C(N)=O (centres unmarked)", "assay": "broth microdilution", "system": "ATCC 12952 VRE", "setting": "18 h, 37 °C", "MIC": "0.019 µg/mL"}
{"SMILES": "CC[P+](CC)(CC)[Au-][S][C@@H]1O[C@H](COC(C)=O)[C@@H](OC(C)=O)[C@H](OC(C)=O)[C@H]1NC(=O)C(Cl)(Cl)Cl", "system": "ATCC 700221", "MIC": "0.08 µM"}
{"SMILES": "CN(C)c1cc(CN2CCCC2)c(O)c2c1C[C@H]1C[C@H]3[C@H](N(C)C)C(O)=C(C(N)=O)C(=O)[C@@]3(O)C(O)=C1C2=O", "system": "494, Tet M and Tet L", "MIC": "2 µg/mL"}
{"SMILES": "CNC(CC(C)C)C(=O)NC1C(=O)NC(CC(N)=O)C(=O)NC2C(=O)NC3C(=O)NC(C(=O)NC(C(=O)NCCCNC(=N)N)c4cc(O)cc(O)c4-c4cc3ccc4O)C(O)c3ccc(c(Cl)c3)Oc3cc2cc(c3OC2OC(CO)C(O)C(O)C2OC2CC(C)(NCc3ccc(-c4ccc(Cl)cc4)cc3)C(O)C(C)O2)Oc2ccc(cc2Cl)C1O (centres unmarked)", "system": "ATCC BAA-2317 VanA", "setting": "−LTA", "MIC": "0.3 µg/mL"}
{"SMILES": "CN(C)c1cc(CN2CCCCC2)c(O)c2c1C[C@H]1C[C@H]3[C@H](N(C)C)C(O)=C(C(N)=O)C(=O)[C@@]3(O)C(O)=C1C2=O", "system": "494, Tet M and Tet L", "MIC": "0.125 µg/mL"}
{"SMILES": "CCn1cc[n+](CC)[c]1[Au-]([Cl])([Cl])[Cl]", "assay": "broth dilution", "system": "DSM 20477", "setting": "20 h, 37 °C", "MIC": "2.3 µM"}
{"SMILES": "Cc1ccc2ccc3ccc(C)nc3c2n1.Cc1ccc2ccc3ccc(C)nc3c2n1.O.[Cl-].[Cl-].[Cl-].[Yb+3]", "MIC": "125 µg/mL"}
{"SMILES": "CC(C)C[C@H](NC(=O)[C@H](CC(N)=O)NC(=O)[C@H](CCCNC(=N)N)NC(=O)[C@@H](CC(C)C)NC(=O)[C@H](Cc1ccccc1)NC(=O)[C@H](CC(=O)O)NC(=O)[C@H](CCCCN)NC(=O)[C@@H](CC(C)C)NC(=O)[C@H](CCCNC(=N)N)NC(=O)[C@H](CCC(N)=O)NC(=O)[C@@H](NC(=O)[C@@H](CC(C)C)NC(=O)[C@H](CCCNC(=N)N)NC(=O)[C@H](CCCCN)NC(=O)[C@H](Cc1ccc(C(F)(F)F)cc1)NC(=O)CN)C(C)C)C(=O)N[C@H](C(N)=O)C(C)C", "assay": "broth microdilution", "system": "ATCC 51559", "MIC": "25 to 50 µM"}
{"SMILES": "CNC(CC(C)C)C(=O)NC1C(=O)NC(CC(N)=O)C(=O)NC2C(=O)NC3C(=O)NC(C(=O)NC(C(=O)NC(CCCNC(=N)N)C(N)=O)c4cc(O)cc(O)c4-c4cc3ccc4O)C(O)c3ccc(c(Cl)c3)Oc3cc2cc(c3OC2OC(CO)C(O)C(O)C2OC2CC(C)(N)C(O)C(C)O2)Oc2ccc(cc2Cl)C1O (centres unmarked)", "assay": "broth microdilution", "system": "ATCC BAA-2317 VanA", "MIC": "4 µg/mL"}
{"SMILES": "CCN(CC)CCCN1/C(=C/c2cc(C)[n+](C)c3ccccc23)Sc2ccccc21", "assay": "microbial growth, broth dilution", "system": "ATCC49624", "MIC": "16 µg/mL"}
{"SMILES": "CN(C)c1cc(CNCC(N)=O)c(O)c2c1C[C@H]1C[C@H]3[C@H](N(C)C)C(O)=C(C(N)=O)C(=O)[C@@]3(O)C(O)=C1C2=O", "system": "494, Tet M and Tet L", "MIC": "64 µg/mL"}
{"note": "Some of these lines once more:"}
{"SMILES": "CNC(CC(C)C)C(=O)NC1C(=O)NC(CC(N)=O)C(=O)NC2C(=O)NC3C(=O)NC(C(=O)NC(C(=O)NC(CCCNC(=N)N)C(N)=O)c4cc(O)cc(O)c4-c4cc3ccc4O)C(O)c3ccc(c(Cl)c3)Oc3cc2cc(c3OC2OC(CO)C(O)C(O)C2OC2CC(C)(N)C(O)C(C)O2)Oc2ccc(cc2Cl)C1O (centres unmarked)", "assay": "broth microdilution", "system": "ATCC BAA-2317 VanA", "MIC": "4 µg/mL"}
